Measurements from different studies.
± marks the error that the study gave.
OPRK1: Kappa-type opioid receptor (OPRK1, Cavia porcellus, UniProt P41144)
UniProt P41144, sequence (whole entry, looked up): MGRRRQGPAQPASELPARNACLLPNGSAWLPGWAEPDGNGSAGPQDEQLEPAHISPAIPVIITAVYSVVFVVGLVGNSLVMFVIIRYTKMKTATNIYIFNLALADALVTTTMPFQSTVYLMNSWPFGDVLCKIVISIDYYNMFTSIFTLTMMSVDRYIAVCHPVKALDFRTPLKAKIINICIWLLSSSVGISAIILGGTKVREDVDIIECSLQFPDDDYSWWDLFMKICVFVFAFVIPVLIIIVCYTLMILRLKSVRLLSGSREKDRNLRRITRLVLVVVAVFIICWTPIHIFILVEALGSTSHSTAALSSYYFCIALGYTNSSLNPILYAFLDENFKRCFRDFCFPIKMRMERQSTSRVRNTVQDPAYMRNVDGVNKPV
CA1: Carbonic anhydrase 1 (CA1, Homo sapiens, UniProt P00915)
UniProt P00915, sequence (whole entry, looked up): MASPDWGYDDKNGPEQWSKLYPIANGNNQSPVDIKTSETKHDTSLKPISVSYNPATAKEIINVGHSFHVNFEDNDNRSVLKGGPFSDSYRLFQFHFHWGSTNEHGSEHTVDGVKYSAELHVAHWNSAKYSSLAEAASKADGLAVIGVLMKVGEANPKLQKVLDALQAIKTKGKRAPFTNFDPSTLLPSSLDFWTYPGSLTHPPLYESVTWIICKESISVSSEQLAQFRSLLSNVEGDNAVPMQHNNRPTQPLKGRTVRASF
OPRM1: Mu-type opioid receptor (OPRM1, Cavia porcellus, UniProt P97266)
UniProt P97266, sequence (whole entry, looked up): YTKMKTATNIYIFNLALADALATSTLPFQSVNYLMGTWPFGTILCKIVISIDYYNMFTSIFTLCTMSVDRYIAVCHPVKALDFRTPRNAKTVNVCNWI
DRD2 long isoform: D(2) dopamine receptor, long isoform (DRD2, Homo sapiens, UniProt P14416)
UniProt P14416, sequence (whole entry, looked up): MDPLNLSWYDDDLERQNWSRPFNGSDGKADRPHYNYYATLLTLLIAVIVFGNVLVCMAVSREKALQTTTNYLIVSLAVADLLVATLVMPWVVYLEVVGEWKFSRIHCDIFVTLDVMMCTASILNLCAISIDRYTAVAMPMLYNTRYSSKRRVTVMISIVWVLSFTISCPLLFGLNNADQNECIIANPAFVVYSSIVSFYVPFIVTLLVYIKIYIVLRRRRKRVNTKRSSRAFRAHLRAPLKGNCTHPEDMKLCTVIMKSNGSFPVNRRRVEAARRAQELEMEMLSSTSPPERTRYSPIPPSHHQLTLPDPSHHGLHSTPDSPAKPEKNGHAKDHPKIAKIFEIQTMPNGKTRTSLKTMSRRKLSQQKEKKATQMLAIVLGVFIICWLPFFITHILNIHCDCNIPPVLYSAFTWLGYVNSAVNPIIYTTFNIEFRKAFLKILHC
WDR5: WD repeat-containing protein 5 (WDR5, Homo sapiens, UniProt P61964)
Oprd1: Delta-type opioid receptor (Oprd1, Rattus norvegicus, UniProt P33533)
UniProt P33533, sequence (whole entry, looked up): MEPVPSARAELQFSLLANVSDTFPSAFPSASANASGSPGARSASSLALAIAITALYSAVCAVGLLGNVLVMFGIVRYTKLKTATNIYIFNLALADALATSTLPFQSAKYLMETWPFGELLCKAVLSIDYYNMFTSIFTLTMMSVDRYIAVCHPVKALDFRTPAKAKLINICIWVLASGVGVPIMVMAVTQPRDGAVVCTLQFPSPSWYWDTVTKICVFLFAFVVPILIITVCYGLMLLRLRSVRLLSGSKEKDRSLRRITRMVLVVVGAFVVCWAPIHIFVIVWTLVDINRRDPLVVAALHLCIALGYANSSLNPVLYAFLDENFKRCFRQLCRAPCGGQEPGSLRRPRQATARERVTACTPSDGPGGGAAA
UniProt P41143, sequence (whole entry, unmodified, looked up): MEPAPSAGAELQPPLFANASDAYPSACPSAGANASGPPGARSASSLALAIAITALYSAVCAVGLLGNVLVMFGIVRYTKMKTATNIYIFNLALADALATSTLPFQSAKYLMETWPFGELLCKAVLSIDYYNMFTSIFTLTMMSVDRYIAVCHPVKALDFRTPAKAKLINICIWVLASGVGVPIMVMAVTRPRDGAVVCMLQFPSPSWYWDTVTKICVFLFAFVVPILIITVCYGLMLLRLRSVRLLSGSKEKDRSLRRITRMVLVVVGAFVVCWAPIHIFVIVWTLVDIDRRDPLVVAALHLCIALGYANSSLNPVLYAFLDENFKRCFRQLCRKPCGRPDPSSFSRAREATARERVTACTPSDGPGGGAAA
UniProt P22303, sequence (whole entry, looked up): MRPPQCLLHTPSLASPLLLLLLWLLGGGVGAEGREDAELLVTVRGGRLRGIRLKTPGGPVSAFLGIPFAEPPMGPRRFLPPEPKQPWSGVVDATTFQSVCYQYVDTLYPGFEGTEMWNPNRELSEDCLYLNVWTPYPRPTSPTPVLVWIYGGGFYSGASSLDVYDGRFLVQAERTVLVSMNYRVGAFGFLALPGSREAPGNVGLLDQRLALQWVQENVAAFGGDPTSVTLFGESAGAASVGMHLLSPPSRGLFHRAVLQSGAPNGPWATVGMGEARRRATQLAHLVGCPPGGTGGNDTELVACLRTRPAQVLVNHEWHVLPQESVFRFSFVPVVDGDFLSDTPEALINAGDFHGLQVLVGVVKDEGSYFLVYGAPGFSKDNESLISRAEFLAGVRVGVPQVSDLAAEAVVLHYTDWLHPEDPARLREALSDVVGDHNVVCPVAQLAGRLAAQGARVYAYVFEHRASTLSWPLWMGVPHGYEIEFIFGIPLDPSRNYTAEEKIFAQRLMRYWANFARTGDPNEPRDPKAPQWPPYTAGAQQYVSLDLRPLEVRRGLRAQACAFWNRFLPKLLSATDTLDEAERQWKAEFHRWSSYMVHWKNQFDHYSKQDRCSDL
UniProt P08172, sequence (whole entry, looked up): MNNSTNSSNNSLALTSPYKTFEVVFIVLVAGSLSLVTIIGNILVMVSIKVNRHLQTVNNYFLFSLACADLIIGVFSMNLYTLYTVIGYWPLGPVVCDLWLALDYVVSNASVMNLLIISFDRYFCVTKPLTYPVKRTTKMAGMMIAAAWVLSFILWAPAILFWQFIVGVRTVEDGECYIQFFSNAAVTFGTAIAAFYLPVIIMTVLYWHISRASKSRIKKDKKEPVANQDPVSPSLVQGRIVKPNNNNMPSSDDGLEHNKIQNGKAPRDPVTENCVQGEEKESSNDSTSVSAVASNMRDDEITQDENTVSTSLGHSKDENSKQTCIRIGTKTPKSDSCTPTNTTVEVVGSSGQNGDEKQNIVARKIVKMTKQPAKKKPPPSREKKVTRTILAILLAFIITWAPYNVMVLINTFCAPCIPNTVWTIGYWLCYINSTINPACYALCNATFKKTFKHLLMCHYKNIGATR
UniProt P62813, sequence (whole entry, looked up): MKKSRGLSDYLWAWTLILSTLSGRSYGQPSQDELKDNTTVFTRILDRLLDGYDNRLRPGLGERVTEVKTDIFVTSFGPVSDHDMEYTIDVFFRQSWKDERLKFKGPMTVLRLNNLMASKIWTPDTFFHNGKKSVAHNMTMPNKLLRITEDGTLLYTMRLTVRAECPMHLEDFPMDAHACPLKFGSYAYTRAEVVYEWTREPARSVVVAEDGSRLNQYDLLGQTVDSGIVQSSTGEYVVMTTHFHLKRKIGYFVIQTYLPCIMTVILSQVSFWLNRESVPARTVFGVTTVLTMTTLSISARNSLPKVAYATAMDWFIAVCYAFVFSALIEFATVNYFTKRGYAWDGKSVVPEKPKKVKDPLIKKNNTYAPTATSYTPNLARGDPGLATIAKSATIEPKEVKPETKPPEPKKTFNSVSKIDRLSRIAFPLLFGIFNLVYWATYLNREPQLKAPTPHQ
UniProt Q9Y251, sequence (whole entry, looked up): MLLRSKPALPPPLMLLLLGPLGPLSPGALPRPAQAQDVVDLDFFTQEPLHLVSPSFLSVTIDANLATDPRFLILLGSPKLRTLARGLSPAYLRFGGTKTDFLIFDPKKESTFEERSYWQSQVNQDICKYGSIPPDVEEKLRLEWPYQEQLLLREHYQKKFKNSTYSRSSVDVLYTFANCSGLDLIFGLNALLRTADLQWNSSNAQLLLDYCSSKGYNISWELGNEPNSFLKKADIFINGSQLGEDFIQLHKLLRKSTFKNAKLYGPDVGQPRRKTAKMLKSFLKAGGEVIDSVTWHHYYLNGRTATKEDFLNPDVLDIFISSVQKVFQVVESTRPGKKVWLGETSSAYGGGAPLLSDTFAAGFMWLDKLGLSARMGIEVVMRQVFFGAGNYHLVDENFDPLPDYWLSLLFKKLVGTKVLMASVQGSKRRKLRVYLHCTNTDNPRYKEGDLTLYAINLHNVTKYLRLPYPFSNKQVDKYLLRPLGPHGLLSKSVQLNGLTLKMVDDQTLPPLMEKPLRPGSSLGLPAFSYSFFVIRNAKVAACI
UniProt P50406, sequence (whole entry, looked up): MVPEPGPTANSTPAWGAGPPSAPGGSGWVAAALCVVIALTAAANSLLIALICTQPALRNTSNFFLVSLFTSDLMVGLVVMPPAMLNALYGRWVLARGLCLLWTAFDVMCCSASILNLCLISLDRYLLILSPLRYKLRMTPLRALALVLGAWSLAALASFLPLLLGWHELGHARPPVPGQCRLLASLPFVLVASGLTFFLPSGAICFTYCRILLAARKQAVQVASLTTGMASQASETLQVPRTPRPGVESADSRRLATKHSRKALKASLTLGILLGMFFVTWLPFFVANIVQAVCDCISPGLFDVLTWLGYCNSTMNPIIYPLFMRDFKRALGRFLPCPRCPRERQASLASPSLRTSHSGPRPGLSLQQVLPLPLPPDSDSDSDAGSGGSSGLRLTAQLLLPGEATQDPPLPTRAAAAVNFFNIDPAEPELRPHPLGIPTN
UniProt P21554, sequence (whole entry, looked up): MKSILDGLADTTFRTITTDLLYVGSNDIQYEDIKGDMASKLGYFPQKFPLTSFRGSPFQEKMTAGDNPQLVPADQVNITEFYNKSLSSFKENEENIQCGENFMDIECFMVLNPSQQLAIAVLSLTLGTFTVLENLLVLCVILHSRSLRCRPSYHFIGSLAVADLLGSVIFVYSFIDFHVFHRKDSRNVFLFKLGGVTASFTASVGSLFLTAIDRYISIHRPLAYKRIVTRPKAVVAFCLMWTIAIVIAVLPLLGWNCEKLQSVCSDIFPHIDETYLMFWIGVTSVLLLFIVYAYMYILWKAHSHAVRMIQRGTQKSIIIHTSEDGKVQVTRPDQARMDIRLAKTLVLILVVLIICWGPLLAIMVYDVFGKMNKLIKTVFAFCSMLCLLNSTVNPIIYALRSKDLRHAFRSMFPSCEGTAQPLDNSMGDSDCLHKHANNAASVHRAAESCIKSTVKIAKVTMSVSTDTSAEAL

COc1ccccc1N1CCN(CCCCN2CCCc3ccccc3C2=O)CC1
Ki (DRD2 (Homo sapiens, UniProt P14416); ligand displacement, radioligand): 9.3 nM

Cc1cc(O)cc(C)c1C[C@H](N)C(=O)N[C@@H]1C/C=C/CC[C@@H](C(N)=O)NC(=O)[C@H](Cc2ccccc2)NC(=O)[C@H](Cc2ccccc2)NC1=O
Ki (OPRK1; ligand displacement, radioligand; cell membranes): 4.97 nM

N[C@H]1CCOC1=O
Ki (CA1; enzyme activity, inhibitor, stopped-flow): > 100000 nM

C[C@@H](Cc1ccsc1)NC(=O)NC[C@H](Cc1ccc(O)cc1)N(C)C
Ki (CHRM2 (Homo sapiens, UniProt P08172); cell-free assay): 4400 nM

Cc1cc(O)cc(C)c1C[C@H](N)C(=O)N[C@H](CCCNC(=N)N)C(=O)N[C@@H](Cc1ccccc1)C(=O)N[C@@H](CCCCNC(=O)CN1CCN(CC(=O)O)CCN(CC(=O)O)CCN(CC(=O)O)CC1)C(N)=O
Ki (OPRM1; ligand displacement, radioligand; cell membranes): 0.068 nM

COC1c2cc(C(C)C)c(O)c(O)c2C23CCCC(C)(C)C2C1OC3=O (stereo not shown)
Ki (Cholinesterase (BCHE, Homo sapiens, UniProt P06276); enzyme activity, inhibitor, absorbance): 2.3 nM

COc1ccc2c(c1)c(CCN(C)C)cn2S(=O)(=O)c1ccccc1
Ki (DRD2 long isoform; binding, radioligand displacement; HEK293 membranes; 1 h, 37 °C, together with: [3H]-raclopride): 352 ± 47 nM

CC[C@@H]1NC(=O)[C@H](CCCNC(=N)N)NC(=O)[C@H](NC(=O)C(C)C)CNC(=O)c2cc(F)c(c(F)c2)N=Nc2c(F)cc(cc2F)C(=O)NCCNC(=O)[C@@H](c2ccccc2)NC1=O
Ki (WDR5; binding, inhibitor, competitive fluorescence polarization; cis isomer, 520 nm photostationary state): 79 nM

Cc1cc(O)cc(C)c1C[C@H](N)C(=O)N[C@H](CCCNC(=N)N)C(=O)N[C@@H](Cc1ccccc1)C(=O)N[C@@H](CCCCN)C(=O)NCCCCCC(=O)N[C@@H](CCCCNC(=O)CN1CCN(CC(=O)O)CCN(CC(=O)O)CCN(CC(=O)O)CC1)C(N)=O
Ki (OPRM1; ligand displacement, radioligand; cell membranes): 0.25 nM

CCCCCn1ccc(C(=O)NC(C)(C)c2ccc(CNC(C)=O)cc2)n1
Ki (CNR1 (Homo sapiens, UniProt P21554); ligand displacement, radioligand): 1120 nM

Cc1cc(O)cc(C)c1C[C@H](N)C(=O)N[C@H](CCCNC(=N)N)C(=O)N[C@@H](Cc1ccccc1)C(=O)N[C@@H](CCCCN)C(=O)N[C@@H]1CCCC[C@H]1NC(=O)[C@H](Cc1ccccc1)NC(=O)[C@H](CC1CCCCC1)NC[C@@H]1Cc2ccccc2CN1C(=O)[C@@H](N)Cc1ccc(O)cc1
Ki (Oprd1; ligand displacement, radioligand; cell membranes): 95.2 nM

Cc1cc(O)cc(C)c1C[C@H](N)C(=O)N[C@H](CCCNC(=N)N)C(=O)N[C@@H](Cc1ccccc1)C(=O)N(C)CC(=O)N(C)Cc1cc(C(F)(F)F)cc(C(F)(F)F)c1
Ki (OPRD1 (Homo sapiens, UniProt P41143, V217A)): 17.6 nM

Cc1cc(O)cc(C)c1CCC(=O)N[C@@H]1CCCCC[C@@H](C(N)=O)NC(=O)[C@H](Cc2ccccc2)NC(=O)[C@H](Cc2ccccc2)NC1=O
Ki (Oprd1; ligand displacement, radioligand; cell membranes): 39.2 nM

CC[C@@H]1NC(=O)[C@H](CCCNC(=N)N)NC(=O)[C@H](NC(=O)C(C)C)CCNC(=O)c2cc(F)c(c(F)c2)N=Nc2c(F)cc(cc2F)C(=O)NCCNC(=O)[C@@H](c2ccccc2)NC1=O
Ki (WDR5; binding, inhibitor, competitive fluorescence polarization; cis isomer, 520 nm photostationary state): 8 nM

N=C(N)NCCC[C@H]1NC(=O)[C@@H](Cc2ccc(O)cc2)NC(=O)[C@H](CCCCN)NC(=O)[C@H](Cc2ccccc2)NC1=O
Ki (Oprd1; ligand displacement, radioligand; cell membranes): > 10000 nM

O=S(=O)(N/N=C/c1ccc(OS(=O)(=O)c2ccc(Br)cc2)cc1)c1cc(Cl)ccc1Cl
Ki (CA1; enzyme activity, inhibitor, absorbance): 342 nM

CC[C@@H]1NC(=O)[C@H](CCCNC(=N)N)NC(=O)[C@H](NC(=O)C(C)C)CCCCNC(=O)c2cc(F)c(c(F)c2)N=Nc2c(F)cc(cc2F)C(=O)NCCNC(=O)[C@@H](c2ccccc2)NC1=O
Ki (WDR5; binding, inhibitor, competitive fluorescence polarization; cis isomer, 520 nm photostationary state): 239 nM

NC(=O)[C@@H]1CC/C=C\C[C@@H](NC(=O)[C@@H](N)Cc2ccc(O)cc2)C(=O)N[C@@H](Cc2ccccc2)C(=O)N[C@@H](Cc2ccccc2)C(=O)N1
Ki (OPRK1; ligand displacement, radioligand; cell membranes): 9.36 nM

CN(C)[C@H](CNC(=O)/C=C/c1cccc2ccccc12)Cc1ccc(O)cc1
Ki (DRD3 (Homo sapiens, UniProt P35462); cell-free assay): 6000 nM

Cc1cc(O)cc(C)c1CCC(=O)N[C@@H]1C/C=C\CC[C@@H](C(N)=O)NC(=O)[C@H](Cc2ccccc2)NC(=O)[C@H](Cc2ccccc2)NC1=O
Ki (OPRK1; ligand displacement, radioligand; cell membranes): 266 nM

COc1cc2c(cc1O)C(CCc1ccc(Cl)cc1)N(C)CC2 (stereo not shown)
Ki (SLC6A4 (Homo sapiens, UniProt P31645); cell-free assay, radioligand): 1000 nM

COc1c(C(C)C)cc2c(c1O)[C@@]1(C(=O)O)CCCC(C)(C)C1CC2 (stereo partly shown)
Ki (ACHE (Homo sapiens, UniProt P22303); enzyme activity, inhibitor): 3.57 nM

Cc1cc(O)cc(C)c1C[C@H](N)C(=O)N[C@@H]1CCCCC[C@@H](C(N)=O)NC(=O)[C@H](Cc2ccccc2)NC(=O)[C@H](Cc2ccccc2)NC1=O
Ki (Oprd1; ligand displacement, radioligand; cell membranes): 1.2 nM

O=S(=O)(N/N=C/c1ccc(OS(=O)(=O)c2ccc(Cl)cc2)cc1)c1cc(Cl)ccc1Cl
Ki (CA1; enzyme activity, inhibitor, absorbance): 24.4 nM

COc1ccc(-n2nc3c4cc(Cl)ccc4[nH]cc-3c2=O)cc1
Ki (Gabrg2/Gabra1, α1+/γ2− interface (Rattus norvegicus, UniProt P18508+P62813); rat cerebellar membranes; together with: [3H]flunitrazepam): 0.018 ± 0.004 nM

O=S(=O)(N/N=C/c1ccc(OS(=O)(=O)c2ccc(Br)cc2)cc1)c1ccc(Cl)cc1
Ki (CA1; enzyme activity, inhibitor, absorbance): 16.7 nM

Cc1cc(O)cc(C)c1C[C@H](N)C(=O)N[C@H](CCCNC(=N)N)C(=O)N[C@@H](Cc1ccccc1)C(=O)N[C@@H](CCCCN)C(=O)NNC(=O)[C@H](Cc1ccccc1)NC(=O)[C@H](CC1CCCCC1)NC[C@@H]1Cc2ccccc2CN1C(=O)[C@@H](N)Cc1ccc(O)cc1
Ki (Oprd1; ligand displacement, radioligand; cell membranes): 2.28 nM

CC[C@@H]1NC(=O)[C@H](CCCNC(=N)N)NC(=O)[C@@H](C)NC(=O)c2cc(F)c(c(F)c2)N=Nc2c(F)cc(cc2F)C(=O)NCCNC(=O)[C@@H](Cc2ccccc2)NC1=O
Ki (WDR5; binding, inhibitor, competitive fluorescence polarization; cis isomer, 520 nm photostationary state): 1310 nM

CN1CCN(c2cccc3c2ccn3Cc2ccccc2)CC1
Ki (DRD2 long isoform; binding, radioligand displacement; HEK293 membranes; 1 h, 37 °C, together with: [3H]-raclopride): 305 ± 26 nM

O=C(Cc1ccc(Cl)c(Cl)c1)N1CCN[C@@H]2COC[C@H](N3CCCC3)[C@H]21
Ki (OPRD1 (Homo sapiens, UniProt P41143); ligand displacement, radioligand; cell membranes): > 10000 nM

CCCCCCCCOC1OC(C)C(OC2OC(C)C(OC3OC(C)C(OC4OC(C)C(OS(=O)(=O)O)C(OS(=O)(=O)O)C4OS(=O)(=O)O)C(OS(=O)(=O)O)C3OS(=O)(=O)O)C(OS(=O)(=O)O)C2OS(=O)(=O)O)C(OS(=O)(=O)O)C1OS(=O)(=O)O (stereo not shown)
Ki (Heparanase (HPSE, Homo sapiens, UniProt Q9Y251); enzyme activity, inhibitor): 6.9 nM

O=C1c2ccccc2CCCN1CCCCN1CCN(c2cccc(Cl)c2Cl)CC1
Ki (HTR6 (Homo sapiens, UniProt P50406); ligand displacement, radioligand): 669 nM

CC[C@@H]1NC(=O)[C@H](CCCNC(=N)N)NC(=O)[C@H](NC(=O)C(C)C)CCNC(=O)c2cc(F)c(c(F)c2)N=Nc2c(F)cc(cc2F)C(=O)NCCNC(=O)[C@@H](Cc2ccccc2)NC1=O
Ki (WDR5; fluorescence polarization competition; cis PSS 520 nm, before irradiation): 5.78 ± 1.59 nM

Cc1cc(O)cc(C)c1C[C@H](N)C(=O)N[C@H](CCCNC(=N)N)C(=O)N[C@@H](Cc1ccccc1)C(=O)N[C@@H](CCCCN)C(=O)NCCNC(=O)[C@@H]1Cc2ccccc2CN1C(=O)[C@@H](N)Cc1c(C)cc(O)cc1C
Ki (Oprd1; ligand displacement, radioligand; cell membranes): 1.74 nM

CC[C@@H]1NC(=O)[C@H](CCCNC(=N)N)NC(=O)[C@H](NC(=O)C(C)C)CNC(=O)c2cc(F)c(c(F)c2)N=Nc2c(F)cc(cc2F)C(=O)NCCNC(=O)[C@@H](Cc2ccccc2)NC1=O
Ki (WDR5; binding, inhibitor, competitive fluorescence polarization; trans isomer, 405 nm photostationary state): 448 nM

O=S(=O)(N/N=C/c1ccc(OS(=O)(=O)c2ccccc2)cc1)c1cc(Cl)ccc1Cl
Ki (CA1; enzyme activity, inhibitor, absorbance): 51.4 nM

NC(=O)[C@@H]1CCCCC[C@@H](NC(=O)[C@@H](N)Cc2ccc(O)cc2)C(=O)N[C@@H](Cc2ccccc2)C(=O)N[C@@H](Cc2ccccc2)C(=O)N1
Ki (OPRK1; ligand displacement, radioligand; cell membranes): 11.3 nM

Repeated from above:
CN(C)[C@H](CNC(=O)/C=C/c1cccc2ccccc12)Cc1ccc(O)cc1
Ki (DRD3 (Homo sapiens, UniProt P35462); cell-free assay): 6000 nM

O=S(=O)(N/N=C/c1ccc(OS(=O)(=O)c2ccc(Br)cc2)cc1)c1cc(Cl)ccc1Cl
Ki (CA1; enzyme activity, inhibitor, absorbance): 342 nM

COc1c(C(C)C)cc2c(c1O)[C@@]1(C(=O)O)CCCC(C)(C)C1CC2 (stereo partly shown)
Ki (ACHE (Homo sapiens, UniProt P22303); enzyme activity, inhibitor): 3.57 nM

COc1ccc2c(c1)c(CCN(C)C)cn2S(=O)(=O)c1ccccc1
Ki (DRD2 long isoform; binding, radioligand displacement; HEK293 membranes; 1 h, 37 °C, together with: [3H]-raclopride): 352 ± 47 nM

Cc1cc(O)cc(C)c1C[C@H](N)C(=O)N[C@H](CCCNC(=N)N)C(=O)N[C@@H](Cc1ccccc1)C(=O)N[C@@H](CCCCN)C(=O)N[C@@H]1CCCC[C@H]1NC(=O)[C@H](Cc1ccccc1)NC(=O)[C@H](CC1CCCCC1)NC[C@@H]1Cc2ccccc2CN1C(=O)[C@@H](N)Cc1ccc(O)cc1
Ki (Oprd1; ligand displacement, radioligand; cell membranes): 95.2 nM
